Results from different studies.
Compare with care: the assays were run in different laboratories. ± gives the spread as reported.
APP amyloid-beta plaques: Amyloid-beta precursor protein, amyloid-beta plaques (APP, Homo sapiens, UniProt P05067)
UniProt P05067, sequence (whole entry, looked up): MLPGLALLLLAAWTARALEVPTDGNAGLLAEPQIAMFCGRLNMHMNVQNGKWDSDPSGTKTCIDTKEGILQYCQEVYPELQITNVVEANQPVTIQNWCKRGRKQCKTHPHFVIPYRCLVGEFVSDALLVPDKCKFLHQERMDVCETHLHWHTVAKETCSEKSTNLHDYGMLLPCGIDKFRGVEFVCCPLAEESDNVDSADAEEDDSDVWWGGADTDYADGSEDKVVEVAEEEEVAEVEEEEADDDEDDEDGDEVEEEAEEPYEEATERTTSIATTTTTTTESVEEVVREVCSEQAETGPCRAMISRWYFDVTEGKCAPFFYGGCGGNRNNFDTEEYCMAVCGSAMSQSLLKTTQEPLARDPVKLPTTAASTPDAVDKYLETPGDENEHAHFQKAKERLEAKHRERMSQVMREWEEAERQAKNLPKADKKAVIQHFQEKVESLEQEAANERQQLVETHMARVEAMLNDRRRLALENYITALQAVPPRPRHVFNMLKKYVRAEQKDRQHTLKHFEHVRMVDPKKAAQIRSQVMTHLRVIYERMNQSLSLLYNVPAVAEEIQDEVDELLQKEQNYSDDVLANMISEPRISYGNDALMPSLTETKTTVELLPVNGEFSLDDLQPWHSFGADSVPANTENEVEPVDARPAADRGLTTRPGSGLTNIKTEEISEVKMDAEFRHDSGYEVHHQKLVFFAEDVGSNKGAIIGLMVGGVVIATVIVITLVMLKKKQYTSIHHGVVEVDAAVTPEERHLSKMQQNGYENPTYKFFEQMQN
APP amyloid-beta aggregates: Amyloid-beta precursor protein, amyloid-beta aggregates (APP, Homo sapiens, UniProt P05067)
APP: Amyloid-beta precursor protein (APP, Homo sapiens, UniProt P05067)

| SMILES | target | assay | system | setting | endpoint | value |
| --- | --- | --- | --- | --- | --- | --- |
| Nc1ccc(-c2ccc3cc(OCCOCCN4CCNC4=O)ccc3n2)cc1 | APP amyloid-beta plaques | radioligand competition binding | AD brain homogenate | 2 h, 37 °C, with: [3H]PIB | Ki | > 1000 nM |
| COCCOCCOCCOC(=O)/C(C#N)=C/c1ccc2cc(N3CCCCC3)ccc2c1 | Amyloid-beta precursor protein, Aβ42 aggregates (APP, Homo sapiens, UniProt P05067) | binding, fluorescence titration |  | 5% DMSO in water, with: aggregated Abeta42 5 µM | Kd | 1400 ± 200 nM |
| COC(=O)c1ccc(-c2ccc3c(c2)[nH]c2ccncc23)cn1 | APP amyloid-beta plaques | binding, [3H]AV-45 displacement | Alzheimer's disease brain | with: [3H]AV-45 10 nM | IC50 | > 10000 nM |
| CNc1ccc(/C=C/c2ccc(OCCOCCOCCOCCOCCOCCNC(=O)CO/N=C/c3ccc(OCCOCCOCCF)nc3)nc2)cc1 [fluorine-18 labelled] | APP amyloid-beta plaques | binding, competition binding | Alzheimer brain gray matter homogenate | 120 min, pH 7.2, 37 °C, with: [18F]AV-45 | Ki | 25.2 ± 0.9 nM |
| COc1ccc(-c2csc(NN=Cc3ccccn3)n2)cc1 | APP amyloid-beta plaques | binding, [3H]AV-45 displacement | Alzheimer's disease brain | with: [3H]AV-45 10 nM | IC50 | > 10000 nM |
| CNc1ccc(/C=C/c2ccc(OCCOCCOCCF)nc2)cc1 [fluorine-18 labelled] | APP amyloid-beta aggregates | saturation binding, item: amyloid-beta | Alzheimer's disease brain homogenate | mean of brains | Kd | 3.72 ± 0.3 nM |
| COc1cc(/C=C/C(O)=C/C(=O)/C=C/c2ccc(OCc3ccccc3)c(OC)c2)ccc1O | APP | amyloid aggregation, inhibitor, fluorescence |  |  | IC50 | 2050 nM |
| COc1ccc(CCN2CCC(Nc3nc4ccccc4n3Cc3ccc(F)cc3)CC2)cc1 | APP amyloid-beta plaques | binding, [3H]AV-45 displacement | Alzheimer's disease brain | with: [3H]AV-45 10 nM | IC50 | > 10000 nM |
| O=C(C=Cc1ccc(O)c(OC(F)(F)F)c1)C(CCOCCOCCOCCOC1CCCCO1)C(=O)C=Cc1ccc(O)c(OC(F)(F)F)c1 (stereo not shown) | APP amyloid-beta aggregates | binding, thioflavin T competition |  |  | IC50 | 930 nM |
| COc1ccc(-c2ccc3c(c2)[nH]c2ccncc23)cc1 | APP amyloid-beta plaques | binding, [3H]AV-45 displacement | Alzheimer's disease brain | with: [3H]AV-45 10 nM | IC50 | 11.2 nM |
| COC(=O)COc1ccc(C=CC(=O)CC(=O)C=Cc2ccc(O)c(OC)c2)cc1OC | APP amyloid-beta aggregates | binding, thioflavin T competition |  |  | IC50 | 140 nM |
| C=CCOC(=O)CCC(=O)Oc1ccc(/C=C/C(=O)/C=C(O)/C=C/c2ccc(OC(=O)CCC(=O)OCC=C)c(OC)c2)cc1OC | APP | amyloid aggregation, inhibitor, fluorescence |  |  | IC50 | 1960 nM |
| COC(=O)CCC(C(=O)C=Cc1ccc(O)c(OC(F)(F)F)c1)C(=O)C=Cc1ccco1 (stereo not shown) | APP amyloid-beta aggregates | binding, thioflavin T competition |  |  | IC50 | 650 nM |
| Fc1ccc(-c2ccc3c(c2)[nH]c2ccncc23)cn1 | APP amyloid-beta plaques | radioligand competition binding | AD brain homogenate | 2 h, 37 °C, with: [3H]PIB | Ki | > 1000 nM |
| COc1ccc(-c2ccc3c(c2)[nH]c2ccncc23)cn1 | APP amyloid-beta plaques | binding, [3H]AV-45 displacement | Alzheimer's disease brain | with: [3H]AV-45 10 nM | IC50 | > 10000 nM |
| O=C(C=Cc1ccc(O)c(OC(F)(F)F)c1)C(CCOC1CCCCO1)C(=O)C=Cc1ccc(O)c(OC(F)(F)F)c1 (stereo not shown) | APP amyloid-beta aggregates | binding, thioflavin T competition |  |  | IC50 | 570 nM |

For quick reference, copied from above:
| SMILES | target | assay | system | setting | endpoint | value |
| --- | --- | --- | --- | --- | --- | --- |
| COC(=O)COc1ccc(C=CC(=O)CC(=O)C=Cc2ccc(O)c(OC)c2)cc1OC | APP amyloid-beta aggregates | binding, thioflavin T competition |  |  | IC50 | 140 nM |
| C=CCOC(=O)CCC(=O)Oc1ccc(/C=C/C(=O)/C=C(O)/C=C/c2ccc(OC(=O)CCC(=O)OCC=C)c(OC)c2)cc1OC | APP | amyloid aggregation, inhibitor, fluorescence |  |  | IC50 | 1960 nM |
